Measurements pooled from the literature.
A part holds a random share of what one study measured. Changes are numbered by the printed parent chain.

Block 1
Target: Beta-1 adrenergic receptor (ADRB1, Homo sapiens, UniProt P08588)
UniProt P08588, sequence (whole entry, looked up): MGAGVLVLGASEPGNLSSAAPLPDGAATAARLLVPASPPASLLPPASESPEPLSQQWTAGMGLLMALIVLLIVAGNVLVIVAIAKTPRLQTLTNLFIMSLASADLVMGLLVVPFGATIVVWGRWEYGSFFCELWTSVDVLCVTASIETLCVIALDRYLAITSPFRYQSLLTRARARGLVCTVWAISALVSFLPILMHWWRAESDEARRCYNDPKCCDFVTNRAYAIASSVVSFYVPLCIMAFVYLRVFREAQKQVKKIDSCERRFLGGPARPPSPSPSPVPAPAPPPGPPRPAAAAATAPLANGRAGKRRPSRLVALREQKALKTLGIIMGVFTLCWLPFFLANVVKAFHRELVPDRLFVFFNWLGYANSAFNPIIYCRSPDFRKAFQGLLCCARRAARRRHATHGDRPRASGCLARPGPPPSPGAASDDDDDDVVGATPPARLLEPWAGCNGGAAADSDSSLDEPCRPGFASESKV
Mode: antagonist
Endpoint: IC50
CC(C)(C)NCC(O)c1cc(Br)c(N)c(Br)c1 (centres unmarked): ≥ 100 µM
COc1ccc(C[C@@H](C)NC[C@H](O)c2ccc(O)c3[nH]c(=O)ccc23)cc1: ≥ 100 µM
C[C@@H](O)[C@H](NC(=O)[C@H]1NC(=O)[C@H]([C@@H](C)O)NC(=O)[C@H](CCCN)NC(=O)[C@@H](Cc2c[nH]c3ccccc23)NC(=O)[C@H](Cc2ccc(O)cc2)NC(=O)[C@@H](NC(=O)[C@H](N)Cc2ccccc2)CSSC1(C)C)C(N)=O: ≥ 100 µM

Block 2
Target: CCNA2, cyclin fold, Cln2 fusion (human)
Method: yeast growth competition, sequencing
Matrix: yeast
Setting: strong parent motif
Relative to: not given
Reading: higher = stronger binding
Endpoint: normalised enrichment score
Parent: viral docking peptide; KGVKRKLFAEDSS; partner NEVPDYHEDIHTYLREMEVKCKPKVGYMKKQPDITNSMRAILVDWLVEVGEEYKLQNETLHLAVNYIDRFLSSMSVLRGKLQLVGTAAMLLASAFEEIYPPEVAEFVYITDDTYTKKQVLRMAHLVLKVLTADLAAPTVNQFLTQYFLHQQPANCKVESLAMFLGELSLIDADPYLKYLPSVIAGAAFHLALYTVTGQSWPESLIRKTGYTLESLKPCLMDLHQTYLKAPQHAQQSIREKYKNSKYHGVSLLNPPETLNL
KGVKRKLFAEPSS [D11P]: 6.33
KGVKRPLFAEDSS [K6P]: 2.86
KGVKRKLFREDSS [A9R]: 6.08
KGVKRKQFAEDSS [L7Q]: 0.699
KHVKRKLFAEDSS [G2H]: 6.41
KGVKRKNFAEDSS [L7N]: 0.415
KTVKRKLFAEDSS [G2T]: 6.31
KGVKRKEFAEDSS [L7E]: 0.551

Block 3
Structure (SMILES): C[C@@H]1C[C@@H]([C@H](O)CC2CC(=O)NC(=O)C2)C(=O)[C@@H](C)C1
Target: Membrane-associated tyrosine- and threonine-specific cdc2-inhibitory kinase (PKMYT1, Homo sapiens, UniProt Q99640)
Method: immunoblotting
Cell line: HCC1569
Concentration: 50 µg/mL
Endpoint: remaining protein level
Construct (Q99640 1-499): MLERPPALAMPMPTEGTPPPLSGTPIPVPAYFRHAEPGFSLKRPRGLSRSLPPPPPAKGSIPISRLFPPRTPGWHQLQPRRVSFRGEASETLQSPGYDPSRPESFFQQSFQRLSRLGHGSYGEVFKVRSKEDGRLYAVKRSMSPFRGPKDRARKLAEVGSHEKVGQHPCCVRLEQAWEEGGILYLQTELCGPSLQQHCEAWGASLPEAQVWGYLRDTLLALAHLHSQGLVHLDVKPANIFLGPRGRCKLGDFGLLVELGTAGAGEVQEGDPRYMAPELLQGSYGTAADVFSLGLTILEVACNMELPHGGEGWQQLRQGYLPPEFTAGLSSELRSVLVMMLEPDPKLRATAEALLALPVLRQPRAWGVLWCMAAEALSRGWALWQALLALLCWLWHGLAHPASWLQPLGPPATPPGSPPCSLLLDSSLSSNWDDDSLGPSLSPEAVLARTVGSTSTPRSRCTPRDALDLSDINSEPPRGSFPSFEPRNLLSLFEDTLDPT
4 h: 63.9%
2 h: 80%
48 h: 29.2%

Mixed results
CBF1 full length, N-terminal tag: Centromere-binding protein 1, full length, N-terminal tag (CBF1, Saccharomyces cerevisiae, UniProt P17106, residues 1-351)
UniProt P17106, sequence (whole entry, looked up): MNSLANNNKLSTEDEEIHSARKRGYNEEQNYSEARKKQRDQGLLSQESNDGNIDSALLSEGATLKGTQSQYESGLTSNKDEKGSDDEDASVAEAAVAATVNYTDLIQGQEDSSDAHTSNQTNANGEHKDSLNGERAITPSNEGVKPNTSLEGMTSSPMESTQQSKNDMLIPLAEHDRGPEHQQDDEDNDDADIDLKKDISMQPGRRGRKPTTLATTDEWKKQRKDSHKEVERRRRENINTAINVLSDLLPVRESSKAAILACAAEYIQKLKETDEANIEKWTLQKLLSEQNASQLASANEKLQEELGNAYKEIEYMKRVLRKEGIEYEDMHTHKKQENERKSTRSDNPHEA
TGTACGAAGCTATGCGACATCACTATAGTAGTTAGGGTCTTGATTCGCTTGACGCTGCTG
fluorescence intensity (CBF1 full length, N-terminal tag; protein-binding microarray; double-stranded DNA, one strand shown, in vitro; 0.8 µM, whole 60-bp probe, no competitor; higher = stronger binding): 512 a.u.

[N-]=[N+]=CC(=O)CC[C@H](N)C(=O)O
haemoglobin (C57BL/6 CES1-/- mouse, blood; intravenous, 1 mg/kg equivalent): 7.1 g/dL

CCTAACTACTATAATCATATGACATAGCTTCGTACAGTCTTGATTCGCTTGACGCTGCTG
fluorescence intensity (CBF1 full length, N-terminal tag; protein-binding microarray; double-stranded DNA, one strand shown, in vitro; 0.8 µM, whole 60-bp probe, no competitor; higher = stronger binding): 965 a.u.

Repeated from above (block 1):
CC(C)(C)NCC(O)c1cc(Br)c(N)c(Br)c1 (centres unmarked): ≥ 100 µM
COc1ccc(C[C@@H](C)NC[C@H](O)c2ccc(O)c3[nH]c(=O)ccc23)cc1: ≥ 100 µM
C[C@@H](O)[C@H](NC(=O)[C@H]1NC(=O)[C@H]([C@@H](C)O)NC(=O)[C@H](CCCN)NC(=O)[C@@H](Cc2c[nH]c3ccccc23)NC(=O)[C@H](Cc2ccc(O)cc2)NC(=O)[C@@H](NC(=O)[C@H](N)Cc2ccccc2)CSSC1(C)C)C(N)=O: ≥ 100 µM
